Measurements from different studies.
Numbered parts are unrelated; each lists some results of a single study. Several values in a cell are separate wells, animals, samples, runs or records.
Sequence of UniProt P49760 (whole entry, looked up): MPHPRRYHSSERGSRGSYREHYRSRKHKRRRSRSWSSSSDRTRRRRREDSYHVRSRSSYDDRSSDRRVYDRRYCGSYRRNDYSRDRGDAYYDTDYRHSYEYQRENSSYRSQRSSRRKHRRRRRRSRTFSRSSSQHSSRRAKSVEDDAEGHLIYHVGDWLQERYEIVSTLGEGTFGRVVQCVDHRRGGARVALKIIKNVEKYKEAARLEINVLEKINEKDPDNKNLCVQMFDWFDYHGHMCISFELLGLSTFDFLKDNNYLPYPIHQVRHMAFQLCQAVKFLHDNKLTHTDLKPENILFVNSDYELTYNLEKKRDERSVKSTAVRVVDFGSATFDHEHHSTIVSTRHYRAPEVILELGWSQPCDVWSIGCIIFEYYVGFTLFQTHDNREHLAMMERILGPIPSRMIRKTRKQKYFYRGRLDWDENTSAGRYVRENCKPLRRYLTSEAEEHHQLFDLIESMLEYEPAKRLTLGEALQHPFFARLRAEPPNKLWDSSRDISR
Sequence of UniProt Q13464 (whole entry, looked up): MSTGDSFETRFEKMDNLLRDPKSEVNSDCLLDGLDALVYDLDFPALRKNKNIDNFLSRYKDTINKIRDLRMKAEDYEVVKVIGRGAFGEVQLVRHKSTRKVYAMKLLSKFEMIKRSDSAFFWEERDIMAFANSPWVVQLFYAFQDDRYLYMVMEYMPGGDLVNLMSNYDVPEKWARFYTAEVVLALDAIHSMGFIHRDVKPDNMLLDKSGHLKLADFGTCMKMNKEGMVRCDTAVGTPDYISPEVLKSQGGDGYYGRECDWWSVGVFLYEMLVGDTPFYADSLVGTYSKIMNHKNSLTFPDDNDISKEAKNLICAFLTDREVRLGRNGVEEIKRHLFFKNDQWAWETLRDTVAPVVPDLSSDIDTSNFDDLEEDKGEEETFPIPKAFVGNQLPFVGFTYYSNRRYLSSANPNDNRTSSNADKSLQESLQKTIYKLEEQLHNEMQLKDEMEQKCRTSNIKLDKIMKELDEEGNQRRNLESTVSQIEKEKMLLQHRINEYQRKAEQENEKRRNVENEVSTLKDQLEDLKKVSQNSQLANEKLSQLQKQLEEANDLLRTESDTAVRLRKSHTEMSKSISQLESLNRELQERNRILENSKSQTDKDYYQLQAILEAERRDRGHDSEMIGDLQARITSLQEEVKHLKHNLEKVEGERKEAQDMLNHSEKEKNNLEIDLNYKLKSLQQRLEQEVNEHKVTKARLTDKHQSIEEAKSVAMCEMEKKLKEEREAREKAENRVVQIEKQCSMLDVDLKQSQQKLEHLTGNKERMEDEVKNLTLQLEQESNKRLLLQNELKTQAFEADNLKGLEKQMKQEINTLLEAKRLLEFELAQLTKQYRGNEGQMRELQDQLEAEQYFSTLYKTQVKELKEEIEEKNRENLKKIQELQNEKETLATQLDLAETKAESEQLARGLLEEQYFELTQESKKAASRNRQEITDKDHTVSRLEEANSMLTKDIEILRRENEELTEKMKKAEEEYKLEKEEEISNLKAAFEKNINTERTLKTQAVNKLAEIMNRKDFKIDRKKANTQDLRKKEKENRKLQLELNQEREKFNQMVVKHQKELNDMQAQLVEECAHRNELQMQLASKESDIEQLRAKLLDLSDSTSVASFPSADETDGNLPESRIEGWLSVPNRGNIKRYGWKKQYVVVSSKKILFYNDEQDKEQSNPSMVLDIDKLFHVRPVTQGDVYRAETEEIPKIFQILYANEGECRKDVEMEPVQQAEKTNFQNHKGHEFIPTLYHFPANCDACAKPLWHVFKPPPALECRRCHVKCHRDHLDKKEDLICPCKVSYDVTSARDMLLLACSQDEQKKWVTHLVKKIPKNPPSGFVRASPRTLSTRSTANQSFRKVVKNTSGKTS
Sequence of UniProt O15264 (whole entry, looked up): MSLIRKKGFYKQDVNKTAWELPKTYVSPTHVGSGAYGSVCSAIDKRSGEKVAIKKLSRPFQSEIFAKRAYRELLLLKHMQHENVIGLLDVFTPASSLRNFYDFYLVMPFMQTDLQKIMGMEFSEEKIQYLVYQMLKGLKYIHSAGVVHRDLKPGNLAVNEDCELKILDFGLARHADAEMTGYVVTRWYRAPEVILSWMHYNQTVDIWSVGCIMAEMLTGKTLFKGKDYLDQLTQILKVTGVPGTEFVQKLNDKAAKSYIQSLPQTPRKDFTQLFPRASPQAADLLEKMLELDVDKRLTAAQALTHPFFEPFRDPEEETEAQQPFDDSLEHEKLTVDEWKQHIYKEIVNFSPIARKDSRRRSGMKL
Sequence of UniProt Q13164 (whole entry, looked up): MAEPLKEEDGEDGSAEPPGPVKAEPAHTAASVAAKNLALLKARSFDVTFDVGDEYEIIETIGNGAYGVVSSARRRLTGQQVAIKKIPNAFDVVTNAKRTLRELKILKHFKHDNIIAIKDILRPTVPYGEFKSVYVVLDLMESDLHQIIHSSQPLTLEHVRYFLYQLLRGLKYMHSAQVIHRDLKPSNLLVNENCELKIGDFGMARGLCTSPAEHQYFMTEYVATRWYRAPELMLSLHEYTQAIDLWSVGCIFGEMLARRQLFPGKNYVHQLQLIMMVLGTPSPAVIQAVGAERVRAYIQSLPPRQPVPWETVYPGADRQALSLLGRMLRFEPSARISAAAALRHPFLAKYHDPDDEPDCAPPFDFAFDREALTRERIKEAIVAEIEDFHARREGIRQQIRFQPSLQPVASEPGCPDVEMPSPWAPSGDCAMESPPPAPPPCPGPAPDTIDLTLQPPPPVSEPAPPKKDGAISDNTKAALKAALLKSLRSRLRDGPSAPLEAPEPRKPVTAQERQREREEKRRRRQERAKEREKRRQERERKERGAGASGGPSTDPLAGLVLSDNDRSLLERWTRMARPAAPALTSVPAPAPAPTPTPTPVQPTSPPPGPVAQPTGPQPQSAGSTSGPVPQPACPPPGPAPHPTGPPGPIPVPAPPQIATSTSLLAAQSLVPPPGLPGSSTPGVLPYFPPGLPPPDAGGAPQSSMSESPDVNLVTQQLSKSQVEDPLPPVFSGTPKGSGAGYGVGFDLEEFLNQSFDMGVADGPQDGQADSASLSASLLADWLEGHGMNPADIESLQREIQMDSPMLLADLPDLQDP
Sequence of UniProt Q96GD4 (whole entry, looked up): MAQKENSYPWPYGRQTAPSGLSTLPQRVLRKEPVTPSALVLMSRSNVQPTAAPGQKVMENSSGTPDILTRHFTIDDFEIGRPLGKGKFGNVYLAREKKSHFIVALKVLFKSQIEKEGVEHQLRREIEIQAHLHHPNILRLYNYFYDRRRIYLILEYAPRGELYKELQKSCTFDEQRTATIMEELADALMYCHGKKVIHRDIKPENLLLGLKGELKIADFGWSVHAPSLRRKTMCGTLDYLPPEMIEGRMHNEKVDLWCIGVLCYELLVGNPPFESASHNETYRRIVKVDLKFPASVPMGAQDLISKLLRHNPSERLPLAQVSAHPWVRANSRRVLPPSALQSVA
Sequence of UniProt Q9Y616 (whole entry, looked up): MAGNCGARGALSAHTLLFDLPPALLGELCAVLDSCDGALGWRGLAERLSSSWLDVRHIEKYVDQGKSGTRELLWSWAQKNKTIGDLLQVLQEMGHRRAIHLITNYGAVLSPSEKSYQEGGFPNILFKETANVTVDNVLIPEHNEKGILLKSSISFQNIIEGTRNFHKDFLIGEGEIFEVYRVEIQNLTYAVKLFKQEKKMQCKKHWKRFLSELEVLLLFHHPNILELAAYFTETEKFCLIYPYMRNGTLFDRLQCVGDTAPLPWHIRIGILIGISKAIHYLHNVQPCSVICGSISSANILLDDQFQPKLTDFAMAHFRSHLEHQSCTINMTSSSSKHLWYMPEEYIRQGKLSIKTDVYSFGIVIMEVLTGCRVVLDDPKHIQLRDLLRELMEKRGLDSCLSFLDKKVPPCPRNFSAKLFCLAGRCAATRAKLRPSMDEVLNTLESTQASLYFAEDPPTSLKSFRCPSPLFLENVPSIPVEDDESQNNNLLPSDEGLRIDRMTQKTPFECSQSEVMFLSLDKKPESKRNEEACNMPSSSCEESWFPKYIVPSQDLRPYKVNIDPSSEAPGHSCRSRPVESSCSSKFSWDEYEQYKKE

Sample 1
Target: Sal-like protein 4, full length isoform A (SALL4, Homo sapiens, UniProt Q9UJQ4, residues 1-1053)
Sequence of UniProt Q9UJQ4 (whole entry, looked up): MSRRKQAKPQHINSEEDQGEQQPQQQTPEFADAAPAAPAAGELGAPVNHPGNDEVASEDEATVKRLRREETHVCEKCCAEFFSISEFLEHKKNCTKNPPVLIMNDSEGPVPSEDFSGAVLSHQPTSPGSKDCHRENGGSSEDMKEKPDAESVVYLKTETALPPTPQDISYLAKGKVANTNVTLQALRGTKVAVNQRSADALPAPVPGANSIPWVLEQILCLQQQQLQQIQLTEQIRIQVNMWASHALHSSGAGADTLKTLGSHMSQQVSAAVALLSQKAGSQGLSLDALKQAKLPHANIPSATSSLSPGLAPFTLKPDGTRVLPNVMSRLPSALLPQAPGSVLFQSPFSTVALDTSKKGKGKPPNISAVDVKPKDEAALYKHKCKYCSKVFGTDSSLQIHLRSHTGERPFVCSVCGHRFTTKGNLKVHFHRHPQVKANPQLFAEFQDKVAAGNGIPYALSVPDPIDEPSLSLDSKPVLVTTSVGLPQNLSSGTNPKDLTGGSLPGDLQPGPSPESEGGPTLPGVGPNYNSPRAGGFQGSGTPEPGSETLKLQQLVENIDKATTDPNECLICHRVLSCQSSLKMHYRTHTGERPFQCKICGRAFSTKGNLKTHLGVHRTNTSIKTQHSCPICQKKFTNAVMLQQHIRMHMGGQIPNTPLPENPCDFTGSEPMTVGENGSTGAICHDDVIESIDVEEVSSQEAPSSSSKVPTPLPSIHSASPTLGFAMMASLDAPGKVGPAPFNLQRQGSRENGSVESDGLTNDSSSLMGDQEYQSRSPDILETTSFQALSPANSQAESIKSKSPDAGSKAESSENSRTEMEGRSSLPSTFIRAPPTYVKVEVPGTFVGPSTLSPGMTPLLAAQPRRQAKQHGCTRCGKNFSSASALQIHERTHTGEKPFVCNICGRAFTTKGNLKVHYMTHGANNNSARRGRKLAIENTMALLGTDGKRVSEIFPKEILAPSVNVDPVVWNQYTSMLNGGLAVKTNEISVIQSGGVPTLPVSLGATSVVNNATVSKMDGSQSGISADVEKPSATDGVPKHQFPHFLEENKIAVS
Method: universal PBM
Molecule type: double-stranded DNA, one strand shown
Medium: in vitro
Concentration: 600 nM
Setting: 8-mer, flanks averaged, mean of replicates
Direction: higher = stronger binding
Strand	E-score
GGGCCCGA	-0.255
CTCGGCAG	-0.205
AACGCGTC	-0.0853
AAGCTTGG	-0.14
ACGACCGT	-0.272
CCATAAAG	0.124
ATCAAGTC	0.159
ACATTCCG	-0.0876

Sample 2
Host: human
Medium: microsomes or S9
Concentration: 2 µM
Time: 0.5 h
SMILES	remaining compound [%]
O=S(=O)(NCC(c1ccco1)S(=O)(=O)c1ccccc1)c1ccc(Oc2ccccc2)cc1 (stereo not shown)	3.9
CCOc1ccccc1O[C@@H](c1ccccc1)[C@@H]1CNCCO1	68.8
CC(O)CN(Cc1ccc(C(C)(C)C)s1)C1CCS(=O)(=O)CC1 (stereo not shown)	34
COC(=O)NC12CCCC(C1)c1ccc(=O)[nH]c1C2 (stereo not shown)	> 99.9
CS(=O)(=O)N1C2CCC1CC(NC(=O)Cn1cc(-c3ccc(F)cc3)cn1)C2 (stereo not shown)	51.8

Sample 3
SMILES: CCS(=O)(=O)c1cc2cc(C[C@@](O)(CC(C)(C)c3ccc(F)cc3C(N)=O)C(F)(F)F)[nH]c2cn1
Observed: cell-free assay
Method: competition with immobilised ligand
Concentration: 1 µM
target	remaining binding [%]
Aurora kinase B (AURKB, Homo sapiens, UniProt Q96GD4)	71
NEK3 (Homo sapiens, UniProt P51956)	100
CLK2 (Homo sapiens, UniProt P49760)	100
CSNK2A1 (Homo sapiens, UniProt P68400)	75
RIPK4 (Homo sapiens, UniProt P57078)	100
IRAK3 (Homo sapiens, UniProt Q9Y616)	67
ACVR1B (Homo sapiens, UniProt P36896)	100
BMPR1A (Homo sapiens, UniProt P36894)	100
ROCK1 (Homo sapiens, UniProt Q13464)	69
MAPK7 (Homo sapiens, UniProt Q13164)	81
MUSK (Homo sapiens, UniProt O15146)	60
MAPK13 (Homo sapiens, UniProt O15264)	96

Sample 4
SMILES: O=C1NC(=O)c2c1c1c3ccccc3[nH]c1n1cncc21
Observed: enzyme activity
Action: inhibitor
Concentration: 0.5 µM
Relative to: control
target	remaining activity
CAMK1 (Homo sapiens, UniProt Q14012)	83.3%
CLK2 (Homo sapiens, UniProt P49760)	94.7%
Cyclin-dependent kinase 2, with cyclin E (CDK2, Homo sapiens, UniProt P24941)	66.5%
PRKCZ (Homo sapiens, UniProt Q05513)	84.8%
CLK1 (Homo sapiens, UniProt P49759)	84%

Further values, each from its own experiment
Structure (SMILES)	test	test system	setting	measurement	value
COc1cc(C(=O)OCCCN2CCCN(CCCOC(=O)c3cc(OC)c(OC)c(OC)c3)CC2)cc(OC)c1OC	mechanical pain, von Frey test	mouse, STZ diabetic neuropathy	intravenous, 30 mg/kg, 24 h post-dose, third injection	paw withdrawal threshold	0.27 g and 0.29 g and 0.11 g and 0.23 g and 0.32 g

For quick reference, copied from above (sample 1):
Strand	E-score
AACGCGTC	-0.0853
ACGACCGT	-0.272
CTCGGCAG	-0.205
